{"data": "Measurements of several laboratories", "note": "Parts stem from different laboratories: compare values within a part only."}
{"data": "Series 1", "target": "RNA binding protein fox-1 homolog 2, RRM domain, GST-SBP tag (RBFOX2, Homo sapiens, UniProt O43251-10, residues 100-194)", "technique": "RNA Bind-n-Seq", "molecule type": "RNA", "sample": "in vitro", "tested at": "365 nM", "setting": "natural RNA segment, single round, ends assumed", "reference": "no-protein control", "direction": "higher = stronger binding", "Construct (chain)": "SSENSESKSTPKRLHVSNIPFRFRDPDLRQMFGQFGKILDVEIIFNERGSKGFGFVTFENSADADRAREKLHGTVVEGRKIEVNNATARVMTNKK"}
{"Strand": "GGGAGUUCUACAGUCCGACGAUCAUGCCAUGGAAGGUCCAGAAGAAAGACGCCUUCUCACCCAUCCUGAAGCUUUGGCAGCCUUCUGGAACGUCCCUCAUCCCCAGAAUCUCCCUUCUUACCCGAGUGCCUCCUGGAAUUCUCGGGUGCCAA", "RBNS enrichment (R)": 0.385}
{"Strand": "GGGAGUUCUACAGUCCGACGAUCCUGUGGGCUCUGCGUGGCCGGGCCUUGCUGGAGGCCCAGUGGGUUUUCUGGGCAAAGCAUGGCCCCUUUUCCCCAGGACAAAGGGAACAGUUGGUGUCUGGGAAGGUAUUUGGAAUUCUCGGGUGCCAA", "RBNS enrichment (R)": 0.903}
{"Strand": "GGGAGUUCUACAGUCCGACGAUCGGAAAGGGCAUGAAGUAAAGCGUUGCCUGAAUGCUGUGUGGUGUUUUGUUUCUUCCUCCUUCCUAUGAGGUUUUCUACUUCUCAAUUAAAAUAAUUUCAAAAUAAACACUUGGAAUUCUCGGGUGCCAA", "RBNS enrichment (R)": 0.422}
{"Strand": "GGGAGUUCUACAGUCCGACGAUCUGAGCACAAAAGCCACGUCCCAAGCCACCUGGCCCGAUUCCACAGAUGUAUGUGCGGCCAGUGACUUCCCCAGGAGUGUGGAGGGGGUGGUGAGGAGGAGCACCUGGGCUUGGAAUUCUCGGGUGCCAA", "RBNS enrichment (R)": 0.566}
{"Strand": "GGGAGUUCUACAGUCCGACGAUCCGUGGUCCAAGAUUCAAAAAUCCUAUUGAUAGUGGCCAUUUUAAUCAUUGCCAUCGUGUGCUUGUUUCAUCCAGUGUUAUGCACUUUCCACAGUUGGACAUGGUGUUAGUUGGAAUUCUCGGGUGCCAA", "RBNS enrichment (R)": 1}
{"Strand": "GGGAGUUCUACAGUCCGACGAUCAUAGCCUCCUGCACAGUAGCCUCUCCUUCCUGUCACCAAAACAGUUUUAGGUCUGCUGAAGUCUGGUGUUCUUUGCUCCUUCUGCAAUCUUGAAAUUGGGGUUUGCUUUAUGGAAUUCUCGGGUGCCAA", "RBNS enrichment (R)": 0.34}
{"data": "Series 2", "target": "Prothrombin, mature alpha-thrombin (F2, Homo sapiens, UniProt P00734)", "technique": "aptamer microarray, sandwich", "molecule type": "DNA with 2'F-ANA", "sample": "in vitro", "tested at": "200 nM", "setting": "whole 15-mer aptamer, many near background", "added": "Cy3 exosite-II aptamer, 400 nM", "direction": "higher = stronger binding", "strand": "GGTTGGTGTGGTTGG"}
{"Modification": "2'F-ANA at 2 3 4 5 7 8 9 10 11 12 15", "mean fluorescence intensity": "59.4 a.u."}
{"Modification": "2'F-ANA at 1 8 9 13", "mean fluorescence intensity": "144 a.u."}
{"Modification": "2'F-ANA at 2 4 6 8 11 14 15", "mean fluorescence intensity": "85.9 a.u."}
{"Modification": "2'F-ANA at 2 4 5 7 8 11 12 15", "mean fluorescence intensity": "160 a.u."}
{"Modification": "2'F-ANA at 3 8 10 12 13 15", "mean fluorescence intensity": "515 a.u."}
{"data": "Series 3", "target": "Interferon regulatory factor 7, full length, phosphomimetic (IRF7, Homo sapiens, UniProt Q92985, residues 1-503, S471D/S472D/S475D/S476D/S477D/S483D/S484D/S487D)", "technique": "protein-binding microarray", "molecule type": "double-stranded DNA, one strand shown", "sample": "in vitro", "tested at": "2200 nM top", "setting": "60-bp whole probe", "added": "salmon DNA 0.4 mg/ml", "reference": "random background probes", "direction": "higher = stronger binding", "shared flanks, not repeated": "GCCTAGCAC … GTCTTGATTCGCTTGACGCTGCTG", "chain of UniProt Q92985 (whole entry, unmodified, looked up)": "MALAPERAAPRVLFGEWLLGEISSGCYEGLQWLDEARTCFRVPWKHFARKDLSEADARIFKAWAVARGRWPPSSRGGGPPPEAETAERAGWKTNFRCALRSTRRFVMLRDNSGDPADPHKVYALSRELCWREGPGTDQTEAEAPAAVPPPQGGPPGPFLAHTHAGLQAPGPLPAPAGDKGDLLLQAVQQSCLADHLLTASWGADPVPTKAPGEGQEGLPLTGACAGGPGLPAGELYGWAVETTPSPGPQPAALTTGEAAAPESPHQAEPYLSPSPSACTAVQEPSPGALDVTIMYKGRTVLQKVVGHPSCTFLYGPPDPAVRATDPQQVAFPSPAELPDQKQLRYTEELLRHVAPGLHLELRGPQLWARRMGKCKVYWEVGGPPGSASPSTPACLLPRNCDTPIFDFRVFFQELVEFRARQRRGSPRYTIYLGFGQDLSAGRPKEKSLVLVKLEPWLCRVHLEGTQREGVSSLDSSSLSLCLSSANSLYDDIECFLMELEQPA"}
{"Strand": "AGAATGATCTTCCTTCATGGCGTGCTA", "fitted relative affinity [z-score]": 0.225}
{"Strand": "GACGGTATCGACATTGGGGACGTGCTA", "fitted relative affinity [z-score]": -0.13}
{"Strand": "GACGGTTTGGGGTTTCGGGACGTGCTA", "fitted relative affinity [z-score]": 1.92}
{"Strand": "TTTGATTTCAGACTGGATTAGTGCTAG", "fitted relative affinity [z-score]": 0.686}
{"Strand": "GACGGACTGGGTAACGGGACGTGCTAG", "fitted relative affinity [z-score]": -1.12}
{"Strand": "GACGAACTGGGGACCGGAGACGTGCTA", "fitted relative affinity [z-score]": -0.586}
{"data": "Single results of other studies"}
{"Substance": "PhoQ, residues 284 288 289 292 302 303 TYGVAM", "target": "PhoP, residues 12 14 15 18 19 NHFRA (Escherichia coli, UniProt P23836)", "test": "Sort-seq, measured: YFP reporter", "system": "E. coli", "setting": "PhoQ-PhoP variant library, added: 10 µM Mg2+", "how to read": "reference: high Mg2+ state, higher = stronger signaling", "endpoint": "fold induction", "value": 3.33}
{"note": "Repeated from above (series 2):"}
{"Modification": "2'F-ANA at 2 4 6 8 11 14 15", "mean fluorescence intensity": "85.9 a.u."}
